Experimental data pooled from the literature.
Each numbered part is a random draw from the data of one study; scales do not carry over between parts. Several values in a cell are separate wells, animals, samples, runs or records.
UniProt Q13237, sequence (whole entry, looked up): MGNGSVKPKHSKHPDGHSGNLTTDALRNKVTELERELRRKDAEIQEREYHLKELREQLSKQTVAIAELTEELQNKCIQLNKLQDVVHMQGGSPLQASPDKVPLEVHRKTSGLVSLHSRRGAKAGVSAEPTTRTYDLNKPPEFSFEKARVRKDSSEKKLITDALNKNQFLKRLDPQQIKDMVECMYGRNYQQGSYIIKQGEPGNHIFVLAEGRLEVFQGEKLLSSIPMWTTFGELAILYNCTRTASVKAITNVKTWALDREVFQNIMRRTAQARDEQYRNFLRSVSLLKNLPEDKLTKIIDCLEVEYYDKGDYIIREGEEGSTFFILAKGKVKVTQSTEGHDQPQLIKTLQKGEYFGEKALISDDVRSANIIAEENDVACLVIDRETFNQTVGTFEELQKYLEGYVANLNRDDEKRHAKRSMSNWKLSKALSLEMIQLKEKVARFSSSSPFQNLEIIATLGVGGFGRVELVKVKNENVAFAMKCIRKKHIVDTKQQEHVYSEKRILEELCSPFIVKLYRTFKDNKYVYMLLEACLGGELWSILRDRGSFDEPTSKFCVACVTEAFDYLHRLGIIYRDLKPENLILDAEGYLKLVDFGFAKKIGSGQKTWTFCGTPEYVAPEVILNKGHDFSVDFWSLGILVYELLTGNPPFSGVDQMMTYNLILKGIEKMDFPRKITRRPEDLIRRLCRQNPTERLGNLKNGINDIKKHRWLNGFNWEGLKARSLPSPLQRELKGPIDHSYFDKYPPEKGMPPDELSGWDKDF
UniProt Q96L34, sequence (whole entry, looked up): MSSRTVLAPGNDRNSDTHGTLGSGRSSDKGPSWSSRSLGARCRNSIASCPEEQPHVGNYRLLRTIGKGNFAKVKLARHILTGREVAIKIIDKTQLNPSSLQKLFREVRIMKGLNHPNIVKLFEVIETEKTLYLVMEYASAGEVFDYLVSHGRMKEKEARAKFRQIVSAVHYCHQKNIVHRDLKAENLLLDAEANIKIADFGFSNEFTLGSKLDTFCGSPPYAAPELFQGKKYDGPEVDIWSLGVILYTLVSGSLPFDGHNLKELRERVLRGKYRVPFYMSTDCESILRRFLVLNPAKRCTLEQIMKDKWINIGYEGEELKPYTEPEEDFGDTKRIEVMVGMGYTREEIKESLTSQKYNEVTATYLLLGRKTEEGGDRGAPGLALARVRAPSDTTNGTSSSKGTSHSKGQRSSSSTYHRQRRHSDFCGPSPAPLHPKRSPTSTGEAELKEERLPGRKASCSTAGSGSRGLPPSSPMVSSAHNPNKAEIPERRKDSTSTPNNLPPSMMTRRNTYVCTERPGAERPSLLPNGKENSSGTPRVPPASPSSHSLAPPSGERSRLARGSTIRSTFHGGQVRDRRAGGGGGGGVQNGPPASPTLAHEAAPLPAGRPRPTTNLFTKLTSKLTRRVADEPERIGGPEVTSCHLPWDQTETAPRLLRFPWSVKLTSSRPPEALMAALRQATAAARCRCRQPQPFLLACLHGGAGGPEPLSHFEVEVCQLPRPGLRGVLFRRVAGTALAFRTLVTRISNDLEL

Sample 1 — mode: inhibitor; concentration: concentration not given; together with: without ssDNA
Target: DNA polymerase theta, helicase domain (POLQ, Homo sapiens, UniProt O75417)
UniProt O75417, sequence (whole entry, looked up): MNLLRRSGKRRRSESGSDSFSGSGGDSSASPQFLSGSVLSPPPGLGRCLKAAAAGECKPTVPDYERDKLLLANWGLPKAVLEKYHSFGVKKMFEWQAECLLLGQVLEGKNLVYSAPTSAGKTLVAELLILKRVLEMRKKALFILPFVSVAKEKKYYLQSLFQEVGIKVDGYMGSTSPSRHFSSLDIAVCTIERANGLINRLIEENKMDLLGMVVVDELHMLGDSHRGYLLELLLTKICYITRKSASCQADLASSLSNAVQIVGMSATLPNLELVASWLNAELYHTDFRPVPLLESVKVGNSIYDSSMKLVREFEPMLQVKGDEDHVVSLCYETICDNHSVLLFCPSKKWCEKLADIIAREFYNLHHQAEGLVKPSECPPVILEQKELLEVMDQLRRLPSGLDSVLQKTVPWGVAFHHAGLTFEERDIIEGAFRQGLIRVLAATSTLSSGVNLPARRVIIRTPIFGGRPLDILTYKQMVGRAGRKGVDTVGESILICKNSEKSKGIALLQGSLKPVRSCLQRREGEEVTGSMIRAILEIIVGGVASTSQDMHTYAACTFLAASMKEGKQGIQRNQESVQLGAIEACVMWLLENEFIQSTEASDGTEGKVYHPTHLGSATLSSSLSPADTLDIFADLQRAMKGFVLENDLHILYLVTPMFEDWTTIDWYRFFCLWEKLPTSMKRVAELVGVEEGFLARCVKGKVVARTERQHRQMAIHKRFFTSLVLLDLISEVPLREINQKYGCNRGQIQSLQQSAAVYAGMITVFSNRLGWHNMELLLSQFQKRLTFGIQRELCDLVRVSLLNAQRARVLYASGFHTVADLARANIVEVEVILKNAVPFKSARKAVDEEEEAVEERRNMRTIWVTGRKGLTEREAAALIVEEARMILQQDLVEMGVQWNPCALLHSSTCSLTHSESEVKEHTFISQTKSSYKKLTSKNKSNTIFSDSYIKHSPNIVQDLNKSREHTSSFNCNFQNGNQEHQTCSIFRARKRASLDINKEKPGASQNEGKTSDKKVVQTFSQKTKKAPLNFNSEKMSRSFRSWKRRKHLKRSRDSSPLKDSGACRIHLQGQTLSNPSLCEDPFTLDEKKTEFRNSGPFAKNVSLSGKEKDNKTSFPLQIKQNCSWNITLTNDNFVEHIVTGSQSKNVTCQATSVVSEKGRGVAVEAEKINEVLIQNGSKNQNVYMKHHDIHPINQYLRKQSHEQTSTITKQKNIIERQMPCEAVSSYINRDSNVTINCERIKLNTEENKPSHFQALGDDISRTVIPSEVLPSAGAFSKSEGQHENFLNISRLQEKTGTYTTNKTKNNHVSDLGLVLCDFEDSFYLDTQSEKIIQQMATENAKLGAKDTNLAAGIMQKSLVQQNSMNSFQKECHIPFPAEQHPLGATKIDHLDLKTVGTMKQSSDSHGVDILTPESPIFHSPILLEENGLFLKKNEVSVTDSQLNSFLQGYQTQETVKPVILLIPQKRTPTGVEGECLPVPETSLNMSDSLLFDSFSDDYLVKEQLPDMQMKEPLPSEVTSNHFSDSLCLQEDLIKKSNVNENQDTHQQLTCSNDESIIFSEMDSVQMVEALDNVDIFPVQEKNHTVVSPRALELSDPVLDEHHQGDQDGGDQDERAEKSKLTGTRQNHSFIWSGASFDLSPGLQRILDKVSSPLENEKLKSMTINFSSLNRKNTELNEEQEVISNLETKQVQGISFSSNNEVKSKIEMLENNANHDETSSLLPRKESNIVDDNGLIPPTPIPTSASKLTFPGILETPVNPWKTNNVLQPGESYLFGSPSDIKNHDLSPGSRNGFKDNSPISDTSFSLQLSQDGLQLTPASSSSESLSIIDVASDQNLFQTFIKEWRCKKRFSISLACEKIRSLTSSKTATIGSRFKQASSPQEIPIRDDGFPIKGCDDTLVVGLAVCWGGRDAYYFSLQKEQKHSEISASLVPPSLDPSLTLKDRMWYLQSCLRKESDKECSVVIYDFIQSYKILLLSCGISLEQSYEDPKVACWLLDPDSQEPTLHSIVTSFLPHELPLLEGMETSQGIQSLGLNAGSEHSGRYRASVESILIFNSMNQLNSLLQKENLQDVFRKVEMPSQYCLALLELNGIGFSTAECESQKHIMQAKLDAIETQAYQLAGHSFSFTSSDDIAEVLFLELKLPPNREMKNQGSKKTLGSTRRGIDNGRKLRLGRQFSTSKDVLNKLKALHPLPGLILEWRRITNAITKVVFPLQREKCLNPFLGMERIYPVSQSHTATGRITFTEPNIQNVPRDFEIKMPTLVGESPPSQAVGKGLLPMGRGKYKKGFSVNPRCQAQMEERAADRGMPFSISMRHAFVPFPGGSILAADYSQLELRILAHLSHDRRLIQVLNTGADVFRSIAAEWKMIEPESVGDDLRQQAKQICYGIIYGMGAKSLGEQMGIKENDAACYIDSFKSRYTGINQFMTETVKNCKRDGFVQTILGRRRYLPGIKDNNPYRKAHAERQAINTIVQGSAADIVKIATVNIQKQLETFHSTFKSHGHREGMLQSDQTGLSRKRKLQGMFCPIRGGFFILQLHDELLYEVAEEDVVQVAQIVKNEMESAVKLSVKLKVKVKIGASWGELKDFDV
SMILES	remaining activity
COc1cccc2c1C(=O)c1c(O)c3c(c(O)c1C2=O)C[C@@](O)(C(=O)CO)C[C@@H]3O[C@H]1C[C@H](N)[C@H](O)[C@H](C)O1	96.6% and 95.7%
O=C(O)[C@]1(Cc2cccc(Nc3nccs3)n2)CC[C@@H](Oc2cccc(Cl)c2F)CC1	50.7% and 51.6%
COc1cccc2c1C(=O)c1c(O)c3c(c(O)c1C2=O)C[C@@](O)(C(C)=O)C[C@@H]3O[C@H]1C[C@H](N)[C@H](O)[C@H](C)O1	100% and 101%
CCc1ccc(/C=C2/SC(=S)NC2=O)cc1	42.5% and 47.5%
Cc1ccc(C2C=C(c3ccccc3)N=C3N=C(NS(C)(=O)=O)NN32)cc1 (stereo not drawn)	88.8% and 90%

Sample 2 — observed: enzyme activity; mode: inhibitor; concentration: 10 µM
Target: Calcium/calmodulin-dependent protein kinase type II subunit alpha (CAMK2A, Homo sapiens, UniProt Q9UQM7)
UniProt Q9UQM7, sequence (whole entry, looked up): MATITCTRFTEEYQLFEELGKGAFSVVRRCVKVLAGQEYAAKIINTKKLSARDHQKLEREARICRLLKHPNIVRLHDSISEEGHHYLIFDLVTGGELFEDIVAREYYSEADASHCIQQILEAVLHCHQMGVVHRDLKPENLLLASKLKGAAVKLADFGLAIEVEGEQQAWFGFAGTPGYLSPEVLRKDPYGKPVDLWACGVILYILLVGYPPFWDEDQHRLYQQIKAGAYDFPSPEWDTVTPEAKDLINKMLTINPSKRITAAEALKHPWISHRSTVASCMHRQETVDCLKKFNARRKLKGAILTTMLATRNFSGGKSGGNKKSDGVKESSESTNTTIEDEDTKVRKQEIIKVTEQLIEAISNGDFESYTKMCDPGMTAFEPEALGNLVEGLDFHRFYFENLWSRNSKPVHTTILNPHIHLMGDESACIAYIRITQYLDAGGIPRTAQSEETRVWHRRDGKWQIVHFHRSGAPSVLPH
Compound	inhibition
CC(C)C(=O)OCC(=O)[C@@]12O[C@H](C3CCCCC3)O[C@@H]1C[C@H]1[C@@H]3CCC4=CC(=O)C=C[C@]4(C)[C@H]3[C@@H](O)C[C@@]12C	3%
Nc1ccn(C[C@@H](CO)OCP(=O)(O)O)c(=O)n1	-12%
Cc1cc(O)c2c(c1)C(=O)c1cc(O)cc(O)c1C2=O	11%
Cc1nc2ccc(CN(C)c3ccc(C(=O)N[C@@H](CCC(=O)O)C(=O)O)s3)cc2c(=O)[nH]1	-13%
CC(C)=CCC[C@](C)(O[C@@H]1O[C@H](CO[C@@H]2OC[C@@H](O)[C@H](O)[C@H]2O)[C@@H](O)[C@H](O)[C@H]1O)[C@H]1CC[C@]2(C)[C@@H]1[C@H](O)C[C@@H]1[C@@]3(C)CC[C@H](O[C@@H]4O[C@H](CO)[C@@H](O)[C@H](O)[C@H]4O[C@@H]4O[C@H](CO)[C@@H](O)[C@H](O)[C@H]4O[C@@H]4OC[C@@H](O)[C@H](O)[C@H]4O)C(C)(C)[C@@H]3CC[C@]12C	-13%
COc1cc([C@@H]2c3cc4c(cc3[C@@H](O[C@@H]3O[C@@H]5CO[C@@H](C)O[C@H]5[C@H](O)[C@H]3O)[C@H]3COC(=O)[C@H]23)OCO4)cc(OC)c1O	0%

Sample 3 — species: mouse; matrix: microsomes or S9; concentration: 2 µM; time: 0.5 h
Compound	remaining compound
COc1ccc(-c2ncnc3nc4n(c23)CCC4)cc1	0.306%
Cc1nc(OCCN2CCOCC2)c(C#N)c2c1COC(C)(C)C2	> 100%
Nc1ccc2c(c1)C(N(Cc1ncc[nH]1)c1ccc(Cl)cc1)C(O)CCO2 (stereo not drawn)	1.3%
Nc1c2c(nc3ccccc13)N(C1CCCCC1)CC2	1.37%
O=C(Cn1nc2c(cc1=O)CCCC2)NCC1CCC(C(=O)O)CC1 (stereo not drawn)	89.7%

Sample 4 — observed: binding; method: radioligand binding; concentration: 10 µM
Target: Alpha-1B adrenergic receptor (ADRA1B, Homo sapiens, UniProt P35368)
UniProt P35368, sequence (whole entry, looked up): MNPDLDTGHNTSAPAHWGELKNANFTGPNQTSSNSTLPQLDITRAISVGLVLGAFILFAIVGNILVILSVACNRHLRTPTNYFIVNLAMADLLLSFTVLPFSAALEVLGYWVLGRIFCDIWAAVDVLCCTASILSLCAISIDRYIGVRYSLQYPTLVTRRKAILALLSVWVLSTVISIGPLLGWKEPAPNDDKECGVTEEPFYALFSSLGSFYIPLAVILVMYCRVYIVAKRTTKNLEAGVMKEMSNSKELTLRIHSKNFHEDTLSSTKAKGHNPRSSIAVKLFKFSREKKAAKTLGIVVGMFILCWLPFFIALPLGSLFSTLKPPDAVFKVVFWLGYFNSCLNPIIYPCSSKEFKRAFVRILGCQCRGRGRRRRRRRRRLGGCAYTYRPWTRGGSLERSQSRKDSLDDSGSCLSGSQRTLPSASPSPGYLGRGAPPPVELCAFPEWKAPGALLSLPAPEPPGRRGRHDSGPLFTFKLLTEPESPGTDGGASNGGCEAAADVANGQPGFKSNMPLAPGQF
SMILES	inhibition
CC(=O)Nc1c(F)cc(C(=O)N[C@H]2CC[C@H](O)CC2)cc1O[C@@H](C)c1ccccc1	-0.75%
Cc1nc(C2CCN(C(=O)c3ccc(OC(F)(F)F)cc3N)CC2)c2ncc(N3CCN(C)CC3)cc2n1	20.2%
CC(=O)c1c(NS(C)(=O)=O)c2cc(-c3ccc(Cl)cc3)c(-c3ccc(Cl)cc3Cl)nc2n(C)c1=O	47.2%
Cc1c(N2CCCC2)nc2ccc(Br)cc2c1C(=O)NC[C@H](CCC(=O)O)c1ccccc1Cl	-4.96%
CCCOc1ccc([C@H]2[C@H](C(=O)O)[C@@H](c3ccc4c(c3)OCO4)CN2CC(=O)Nc2c(CC)cccc2CC)cc1	-2.22%
Cc1nc(N2CC[C@@H](O)C2)ncc1-c1cc(C(F)(F)F)cc2[nH]ncc12	15.9%
O[C@]1(C(F)(F)F)CCCC[C@H]1Nc1ccc(F)cc1	8.7%

Sample 5 — observed: enzyme activity; mode: inhibitor; concentration: 0.5 µM; relative to: control
SMILES: CCN(CC)CCNC(=O)c1c(C)[nH]c(/C=C2\C(=O)Nc3ccc(F)cc32)c1C
target	remaining activity [%]
MAPK1 (Homo sapiens, UniProt P28482)	98.5
PLK3 (Homo sapiens, UniProt Q9H4B4)	96.5
TXK (Homo sapiens, UniProt P42681)	92.6
DCLK2 (Homo sapiens, UniProt Q8N568)	85
ROCK1 (Homo sapiens, UniProt Q13464)	99.7
CDC42BPB (Homo sapiens, UniProt Q9Y5S2)	101
CAMK4 (Homo sapiens, UniProt Q16566)	88.6
MARK4 (Homo sapiens, UniProt Q96L34)	24.7
DDR2 (Homo sapiens, UniProt Q16832)	154
Cyclin-dependent kinase 9, with cyclin K (CDK9, Homo sapiens, UniProt P50750)	80.2
PNCK (Homo sapiens, UniProt Q6P2M8)	98.5
MAPK11 (Homo sapiens, UniProt Q15759)	99.9
Cyclin-dependent kinase 1, with cyclin A (CDK1, Homo sapiens, UniProt P06493)	98.4
PRKG2 (Homo sapiens, UniProt Q13237)	96.1
MINK1 (Homo sapiens, UniProt Q8N4C8)	10.5
Myosin-IIIb (MYO3B, Homo sapiens, UniProt Q8WXR4)	54.5
MAPK14 (Homo sapiens, UniProt Q16539)	105
MAP2K1 (Homo sapiens, UniProt Q02750)	67.8
CLK3 (Homo sapiens, UniProt P49761)	105

Excerpt of the above (sample 5):
target	remaining activity [%]
TXK (Homo sapiens, UniProt P42681)	92.6
PRKG2 (Homo sapiens, UniProt Q13237)	96.1
CAMK4 (Homo sapiens, UniProt Q16566)	88.6
